Assay results of several laboratories.
Parts stem from different laboratories: compare values within a part only.
UniProt P15056, sequence (whole entry, unmodified, looked up): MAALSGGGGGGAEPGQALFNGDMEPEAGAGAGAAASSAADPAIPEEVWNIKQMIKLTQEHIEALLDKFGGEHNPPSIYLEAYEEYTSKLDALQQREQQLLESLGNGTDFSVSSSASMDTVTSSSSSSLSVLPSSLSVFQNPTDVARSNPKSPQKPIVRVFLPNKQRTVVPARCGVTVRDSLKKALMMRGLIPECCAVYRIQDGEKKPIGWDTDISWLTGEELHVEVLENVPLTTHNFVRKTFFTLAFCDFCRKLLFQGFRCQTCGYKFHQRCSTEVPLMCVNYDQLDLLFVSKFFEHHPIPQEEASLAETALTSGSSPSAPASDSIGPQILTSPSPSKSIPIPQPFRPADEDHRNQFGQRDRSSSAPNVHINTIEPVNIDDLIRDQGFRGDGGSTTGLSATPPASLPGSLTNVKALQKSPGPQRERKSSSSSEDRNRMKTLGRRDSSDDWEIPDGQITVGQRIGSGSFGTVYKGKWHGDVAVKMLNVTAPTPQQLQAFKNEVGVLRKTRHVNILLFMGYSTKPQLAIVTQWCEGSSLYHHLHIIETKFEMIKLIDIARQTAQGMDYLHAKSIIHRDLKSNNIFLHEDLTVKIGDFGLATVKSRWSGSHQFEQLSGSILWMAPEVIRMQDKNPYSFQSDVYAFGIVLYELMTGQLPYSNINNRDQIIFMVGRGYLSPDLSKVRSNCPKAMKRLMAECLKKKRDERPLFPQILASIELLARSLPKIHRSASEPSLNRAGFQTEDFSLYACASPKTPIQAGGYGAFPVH
UniProt Q02763, sequence (whole entry, looked up): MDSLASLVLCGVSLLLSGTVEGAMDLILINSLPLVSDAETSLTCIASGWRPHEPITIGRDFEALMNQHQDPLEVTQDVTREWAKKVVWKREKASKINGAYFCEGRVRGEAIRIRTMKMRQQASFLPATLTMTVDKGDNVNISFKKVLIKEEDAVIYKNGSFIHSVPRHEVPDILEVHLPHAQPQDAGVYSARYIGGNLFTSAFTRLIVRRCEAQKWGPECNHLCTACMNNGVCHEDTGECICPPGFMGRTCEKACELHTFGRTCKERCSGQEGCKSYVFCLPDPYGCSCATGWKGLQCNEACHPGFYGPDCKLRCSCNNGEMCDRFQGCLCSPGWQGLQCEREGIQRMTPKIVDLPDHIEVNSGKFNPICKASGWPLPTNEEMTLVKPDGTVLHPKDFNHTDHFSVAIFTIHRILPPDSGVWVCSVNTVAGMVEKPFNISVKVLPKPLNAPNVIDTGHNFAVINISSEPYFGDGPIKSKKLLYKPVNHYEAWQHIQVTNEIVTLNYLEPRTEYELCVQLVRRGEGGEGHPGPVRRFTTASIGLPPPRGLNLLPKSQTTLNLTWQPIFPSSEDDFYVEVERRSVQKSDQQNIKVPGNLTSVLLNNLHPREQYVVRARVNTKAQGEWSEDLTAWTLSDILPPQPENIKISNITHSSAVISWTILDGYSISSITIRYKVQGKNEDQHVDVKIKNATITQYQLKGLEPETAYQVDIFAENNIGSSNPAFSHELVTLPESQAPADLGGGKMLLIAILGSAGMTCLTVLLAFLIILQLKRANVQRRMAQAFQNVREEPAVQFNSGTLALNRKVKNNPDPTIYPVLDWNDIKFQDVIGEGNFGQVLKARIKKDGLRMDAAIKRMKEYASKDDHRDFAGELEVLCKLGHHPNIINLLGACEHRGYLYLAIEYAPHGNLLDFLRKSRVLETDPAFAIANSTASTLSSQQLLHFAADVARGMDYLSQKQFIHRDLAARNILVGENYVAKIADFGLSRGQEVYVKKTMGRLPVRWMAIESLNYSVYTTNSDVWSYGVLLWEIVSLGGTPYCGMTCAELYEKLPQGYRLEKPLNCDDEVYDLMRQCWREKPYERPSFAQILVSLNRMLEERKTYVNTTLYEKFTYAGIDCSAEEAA
UniProt Q8IVH8, sequence (whole entry, looked up): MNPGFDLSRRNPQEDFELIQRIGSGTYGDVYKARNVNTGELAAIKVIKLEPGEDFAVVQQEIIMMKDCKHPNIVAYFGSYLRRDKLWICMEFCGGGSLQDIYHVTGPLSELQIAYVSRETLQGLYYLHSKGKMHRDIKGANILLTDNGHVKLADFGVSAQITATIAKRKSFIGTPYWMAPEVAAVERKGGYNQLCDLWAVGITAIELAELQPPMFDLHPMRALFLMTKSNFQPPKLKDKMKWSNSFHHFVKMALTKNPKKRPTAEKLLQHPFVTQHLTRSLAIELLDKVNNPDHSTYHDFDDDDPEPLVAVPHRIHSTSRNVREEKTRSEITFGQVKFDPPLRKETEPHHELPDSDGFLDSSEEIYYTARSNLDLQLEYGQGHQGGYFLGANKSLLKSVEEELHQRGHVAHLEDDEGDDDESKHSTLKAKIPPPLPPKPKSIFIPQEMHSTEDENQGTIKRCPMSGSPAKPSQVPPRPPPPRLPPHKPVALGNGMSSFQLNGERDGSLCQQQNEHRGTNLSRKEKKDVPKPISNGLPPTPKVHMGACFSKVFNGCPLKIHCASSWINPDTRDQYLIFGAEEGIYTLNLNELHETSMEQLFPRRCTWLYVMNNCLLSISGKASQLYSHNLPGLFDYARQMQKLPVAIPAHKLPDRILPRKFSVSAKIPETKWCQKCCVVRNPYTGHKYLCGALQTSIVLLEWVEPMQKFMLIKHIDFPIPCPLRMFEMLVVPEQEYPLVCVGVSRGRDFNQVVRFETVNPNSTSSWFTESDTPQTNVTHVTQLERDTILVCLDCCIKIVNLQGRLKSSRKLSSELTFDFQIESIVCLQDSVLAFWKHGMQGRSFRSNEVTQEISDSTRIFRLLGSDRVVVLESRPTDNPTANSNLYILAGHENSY
UniProt O95835, sequence (whole entry, looked up): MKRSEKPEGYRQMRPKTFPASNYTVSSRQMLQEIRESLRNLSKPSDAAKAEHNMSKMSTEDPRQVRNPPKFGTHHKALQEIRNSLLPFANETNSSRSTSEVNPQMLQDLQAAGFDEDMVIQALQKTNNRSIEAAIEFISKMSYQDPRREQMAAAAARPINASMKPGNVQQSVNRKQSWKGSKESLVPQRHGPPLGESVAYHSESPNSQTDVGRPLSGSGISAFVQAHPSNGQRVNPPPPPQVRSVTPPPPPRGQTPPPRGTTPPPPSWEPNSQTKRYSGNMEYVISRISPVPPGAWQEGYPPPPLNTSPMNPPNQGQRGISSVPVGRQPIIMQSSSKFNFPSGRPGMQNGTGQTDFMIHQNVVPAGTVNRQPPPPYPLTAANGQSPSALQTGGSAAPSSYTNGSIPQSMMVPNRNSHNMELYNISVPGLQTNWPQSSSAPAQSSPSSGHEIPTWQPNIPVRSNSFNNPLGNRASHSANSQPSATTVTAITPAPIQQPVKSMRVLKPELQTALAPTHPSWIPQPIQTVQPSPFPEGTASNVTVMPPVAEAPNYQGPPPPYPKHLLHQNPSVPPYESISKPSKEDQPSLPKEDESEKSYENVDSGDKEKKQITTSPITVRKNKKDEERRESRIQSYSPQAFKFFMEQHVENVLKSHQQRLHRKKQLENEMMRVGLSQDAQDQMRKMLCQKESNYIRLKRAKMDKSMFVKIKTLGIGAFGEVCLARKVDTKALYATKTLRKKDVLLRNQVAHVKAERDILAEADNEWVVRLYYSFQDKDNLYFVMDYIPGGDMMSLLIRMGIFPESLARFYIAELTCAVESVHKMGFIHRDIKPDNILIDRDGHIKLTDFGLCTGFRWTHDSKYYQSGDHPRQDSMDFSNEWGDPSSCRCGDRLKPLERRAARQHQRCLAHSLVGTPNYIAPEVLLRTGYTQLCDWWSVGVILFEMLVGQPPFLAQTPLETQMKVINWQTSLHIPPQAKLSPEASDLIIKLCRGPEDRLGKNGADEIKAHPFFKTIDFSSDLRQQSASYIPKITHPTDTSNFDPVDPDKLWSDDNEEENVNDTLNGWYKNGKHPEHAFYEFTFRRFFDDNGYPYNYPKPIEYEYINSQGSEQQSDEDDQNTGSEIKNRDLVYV
UniProt Q99640, sequence (whole entry, looked up): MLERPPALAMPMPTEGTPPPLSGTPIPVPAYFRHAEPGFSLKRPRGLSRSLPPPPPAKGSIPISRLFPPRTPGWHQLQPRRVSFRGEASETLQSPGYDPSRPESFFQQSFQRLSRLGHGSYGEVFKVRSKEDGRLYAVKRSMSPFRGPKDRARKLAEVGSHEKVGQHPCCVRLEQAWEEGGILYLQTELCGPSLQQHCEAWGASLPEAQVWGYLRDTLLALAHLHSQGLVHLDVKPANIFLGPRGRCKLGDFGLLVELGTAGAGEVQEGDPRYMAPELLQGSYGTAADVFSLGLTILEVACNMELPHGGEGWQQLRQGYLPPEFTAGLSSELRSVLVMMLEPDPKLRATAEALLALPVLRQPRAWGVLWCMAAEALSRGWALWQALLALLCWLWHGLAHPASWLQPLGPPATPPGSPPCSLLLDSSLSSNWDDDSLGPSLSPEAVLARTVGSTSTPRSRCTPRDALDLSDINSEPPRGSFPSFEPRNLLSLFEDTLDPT

Series 1
Target: Eukaryotic initiation factor 4A-III (Homo sapiens, UniProt P38919)
UniProt P38919, sequence (whole entry, looked up): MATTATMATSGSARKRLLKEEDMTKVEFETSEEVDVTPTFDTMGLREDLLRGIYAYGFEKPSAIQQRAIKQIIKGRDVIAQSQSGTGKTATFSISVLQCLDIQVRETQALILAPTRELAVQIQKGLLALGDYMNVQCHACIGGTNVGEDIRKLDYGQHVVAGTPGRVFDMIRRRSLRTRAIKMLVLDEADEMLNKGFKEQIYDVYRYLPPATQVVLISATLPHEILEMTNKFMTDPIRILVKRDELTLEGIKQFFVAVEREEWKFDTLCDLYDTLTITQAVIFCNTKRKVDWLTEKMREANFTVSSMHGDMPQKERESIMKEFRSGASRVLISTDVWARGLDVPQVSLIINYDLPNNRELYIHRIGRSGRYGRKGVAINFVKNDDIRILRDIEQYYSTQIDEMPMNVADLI
Read-out: RNA clamping
Technique: fluorescence polarization
Tested at: concentration not given
With: FAM-labelled poly r(AG)8 RNA
Compound	fluorescence polarization change [mP]
COc1ccc([C@@]23Oc4cc(OC)cc(OC)c4[C@@](O)(C2=O)[C@H](C(=O)N(C)OC)[C@H]3c2ccccc2)cc1	-0.3
COC(=O)CCCn1c(-c2ccccc2)nc2c(c1=O)[C@H](c1ccccc1)[C@]1(c3ccc(OC)cc3)Oc3cc(OC)cc(OC)c3[C@]21O	5.5
COc1ccc([C@]23Oc4cc(OC)cc(OC)c4[C@@]4(O[C@@H]5CCCN5C(=O)[C@@H]4[C@H]2c2ccccc2)[C@@H]3O)cc1	-7

Series 2
Species: human
Medium: microsomes or S9
Tested at: 2 µM
Time: 0.5 h
SMILES	remaining compound [%]
CCc1nn2c(=O)c(CC(=O)OC)c(C)[nH]c2c1-c1ccccc1	95.9
CCOc1cccc(CN(CCO)Cc2ccccc2C(=O)O)c1	96.3
c1ccc(C(c2ccccc2)c2n[nH]c3c2CNCC3)cc1	99.8
COc1ccc(-c2nnc3c4ccccc4c(Cl)nn23)cc1	0.414

Series 3
Compound: COc1cc(C(=O)N2CCC(N3CCN(C)CC3)CC2)ccc1Nc1ncc2c(n1)N(C)c1ccccc1C(=O)N2C
target or system	assay	system	conditions	inhibition
BRAF (human)	probe labelling, KiNativ ADP probe	human PBMC lysate	concentration not given, LYS2 labelled site	9.6%
mouse FYN/SRC/YES	probe labelling, KiNativ ATP probe	mouse brain lysate	0.1 µM, activation loop site	4.5%
human PBMC	probe labeling, inhibitor, KiNativ profiling	cell lysate	concentration not given, domain 1, LYS1 site, with: ADP acyl-phosphate probe 1 µM	2.2%
MAP3K2 (mouse)	probe labelling, KiNativ ADP probe	mouse brain lysate	1 µM, LYS1 labelled site	-2.1%
human PBMC	probe labeling, inhibitor, KiNativ profiling	cell lysate	concentration not given, domain 1, DFG motif site, with: ATP acyl-phosphate probe 1 µM	-3.6%
PIK3CD human	KiNativ profiling	human PBMC	1 µM, ATP site, with: ADP acyl phosphate probe	10.8%
HCK (human)	probe labelling, KiNativ ATP probe	human PBMC lysate	concentration not given, LYS1 labelled site	18.4%

Series 4
Compound: CO[C@H]1CC[C@H](CNc2ccc(S(=O)(=O)NC(=O)c3ccc(N4CCN(CC5=C(c6ccc(Cl)cc6)CC(C)(C)CC5)CC4)cc3Oc3cnc4[nH]ccc4c3)cc2[N+](=O)[O-])CC1
Read-out: cell-free assay
Technique: competition with immobilised ligand
Tested at: 1 µM
target	remaining binding
Serine/threonine-protein kinase B-raf (BRAF, Homo sapiens, UniProt P15056, V600E)	93%
Angiopoietin-1 receptor (TEK, Homo sapiens, UniProt Q02763)	69%
cAMP-dependent protein kinase catalytic subunit alpha (PRKACA, Homo sapiens, UniProt P17612)	78%
cAMP-dependent protein kinase catalytic subunit beta (PRKACB, Homo sapiens, UniProt P22694)	88%
Mitogen-activated protein kinase kinase kinase kinase 3 (MAP4K3, Homo sapiens, UniProt Q8IVH8)	99%
Phosphatidylinositol 4,5-bisphosphate 3-kinase catalytic subunit beta isoform (PIK3CB, Homo sapiens, UniProt P42338)	100%
Cyclin-dependent kinase 4 (CDK4, Homo sapiens, UniProt P11802)	100%
Membrane-associated tyrosine- and threonine-specific cdc2-inhibitory kinase (PKMYT1, Homo sapiens, UniProt Q99640)	100%
Serine/threonine-protein kinase LATS1 (LATS1, Homo sapiens, UniProt O95835)	87%
Serine/threonine-protein kinase B-raf (BRAF, Homo sapiens, UniProt P15056)	100%
